{"data": "Measured values gathered from unrelated publications", "note": "Protocols differ between the studies behind these lines. pIC50: −log10 of the molar value.", "sequence of UniProt P10721 (whole entry, unmodified, looked up)": "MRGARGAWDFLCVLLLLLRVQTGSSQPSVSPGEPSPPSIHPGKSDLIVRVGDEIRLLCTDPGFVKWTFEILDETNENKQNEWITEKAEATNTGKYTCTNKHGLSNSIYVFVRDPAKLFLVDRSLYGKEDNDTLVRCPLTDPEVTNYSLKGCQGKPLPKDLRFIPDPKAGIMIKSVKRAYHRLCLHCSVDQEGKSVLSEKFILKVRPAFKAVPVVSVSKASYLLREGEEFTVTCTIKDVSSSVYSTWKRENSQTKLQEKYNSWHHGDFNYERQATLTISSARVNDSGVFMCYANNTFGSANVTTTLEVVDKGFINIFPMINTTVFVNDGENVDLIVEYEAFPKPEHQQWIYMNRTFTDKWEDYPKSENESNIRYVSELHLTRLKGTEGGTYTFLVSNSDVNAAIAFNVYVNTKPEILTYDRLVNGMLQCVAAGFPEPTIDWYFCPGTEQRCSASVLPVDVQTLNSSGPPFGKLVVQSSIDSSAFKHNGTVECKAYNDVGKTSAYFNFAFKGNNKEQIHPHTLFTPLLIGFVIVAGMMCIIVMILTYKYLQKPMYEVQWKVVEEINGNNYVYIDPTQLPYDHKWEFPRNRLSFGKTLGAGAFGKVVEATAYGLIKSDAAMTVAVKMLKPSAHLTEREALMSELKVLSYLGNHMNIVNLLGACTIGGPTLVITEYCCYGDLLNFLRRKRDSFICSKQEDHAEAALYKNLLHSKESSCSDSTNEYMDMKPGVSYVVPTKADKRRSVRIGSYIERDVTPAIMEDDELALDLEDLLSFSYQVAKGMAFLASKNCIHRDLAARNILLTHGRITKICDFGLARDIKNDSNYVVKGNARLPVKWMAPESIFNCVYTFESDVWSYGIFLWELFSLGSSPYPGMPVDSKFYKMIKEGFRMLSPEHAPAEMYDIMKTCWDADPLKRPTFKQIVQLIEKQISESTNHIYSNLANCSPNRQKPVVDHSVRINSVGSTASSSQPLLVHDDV", "sequence of UniProt Q8IU85 (whole entry, looked up)": "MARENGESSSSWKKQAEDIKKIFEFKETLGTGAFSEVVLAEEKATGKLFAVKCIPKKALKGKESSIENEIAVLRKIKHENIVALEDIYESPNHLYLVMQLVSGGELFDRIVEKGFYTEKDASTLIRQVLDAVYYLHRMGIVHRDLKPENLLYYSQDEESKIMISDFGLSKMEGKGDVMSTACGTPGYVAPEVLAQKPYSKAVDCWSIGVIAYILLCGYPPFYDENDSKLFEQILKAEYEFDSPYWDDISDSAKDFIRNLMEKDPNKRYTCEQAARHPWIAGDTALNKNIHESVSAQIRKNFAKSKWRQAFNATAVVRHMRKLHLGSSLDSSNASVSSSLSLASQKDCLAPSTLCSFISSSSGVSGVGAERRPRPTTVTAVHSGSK", "sequence of UniProt Q16620 (whole entry, looked up)": "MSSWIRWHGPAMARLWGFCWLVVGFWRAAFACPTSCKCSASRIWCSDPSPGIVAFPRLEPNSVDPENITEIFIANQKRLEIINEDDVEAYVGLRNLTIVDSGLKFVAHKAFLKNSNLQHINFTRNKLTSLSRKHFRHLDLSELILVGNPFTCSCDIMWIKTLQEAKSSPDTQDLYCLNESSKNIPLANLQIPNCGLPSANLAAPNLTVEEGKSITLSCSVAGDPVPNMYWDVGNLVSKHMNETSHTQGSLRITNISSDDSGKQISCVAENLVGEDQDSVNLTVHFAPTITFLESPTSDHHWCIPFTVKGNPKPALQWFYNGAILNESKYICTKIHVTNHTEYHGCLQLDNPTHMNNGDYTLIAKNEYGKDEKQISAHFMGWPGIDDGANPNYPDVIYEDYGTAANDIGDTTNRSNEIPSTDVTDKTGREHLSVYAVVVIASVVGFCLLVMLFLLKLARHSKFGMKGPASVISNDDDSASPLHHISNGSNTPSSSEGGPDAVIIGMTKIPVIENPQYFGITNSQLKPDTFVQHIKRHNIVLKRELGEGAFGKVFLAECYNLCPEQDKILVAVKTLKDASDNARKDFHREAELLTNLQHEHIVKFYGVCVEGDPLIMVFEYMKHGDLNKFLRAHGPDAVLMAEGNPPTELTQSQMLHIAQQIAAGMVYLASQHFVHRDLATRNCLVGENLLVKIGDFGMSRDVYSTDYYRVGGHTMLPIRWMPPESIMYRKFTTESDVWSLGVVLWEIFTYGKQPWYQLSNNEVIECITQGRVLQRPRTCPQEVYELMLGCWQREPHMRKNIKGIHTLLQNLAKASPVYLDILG", "sequence of UniProt Q5VT25 (whole entry, looked up)": "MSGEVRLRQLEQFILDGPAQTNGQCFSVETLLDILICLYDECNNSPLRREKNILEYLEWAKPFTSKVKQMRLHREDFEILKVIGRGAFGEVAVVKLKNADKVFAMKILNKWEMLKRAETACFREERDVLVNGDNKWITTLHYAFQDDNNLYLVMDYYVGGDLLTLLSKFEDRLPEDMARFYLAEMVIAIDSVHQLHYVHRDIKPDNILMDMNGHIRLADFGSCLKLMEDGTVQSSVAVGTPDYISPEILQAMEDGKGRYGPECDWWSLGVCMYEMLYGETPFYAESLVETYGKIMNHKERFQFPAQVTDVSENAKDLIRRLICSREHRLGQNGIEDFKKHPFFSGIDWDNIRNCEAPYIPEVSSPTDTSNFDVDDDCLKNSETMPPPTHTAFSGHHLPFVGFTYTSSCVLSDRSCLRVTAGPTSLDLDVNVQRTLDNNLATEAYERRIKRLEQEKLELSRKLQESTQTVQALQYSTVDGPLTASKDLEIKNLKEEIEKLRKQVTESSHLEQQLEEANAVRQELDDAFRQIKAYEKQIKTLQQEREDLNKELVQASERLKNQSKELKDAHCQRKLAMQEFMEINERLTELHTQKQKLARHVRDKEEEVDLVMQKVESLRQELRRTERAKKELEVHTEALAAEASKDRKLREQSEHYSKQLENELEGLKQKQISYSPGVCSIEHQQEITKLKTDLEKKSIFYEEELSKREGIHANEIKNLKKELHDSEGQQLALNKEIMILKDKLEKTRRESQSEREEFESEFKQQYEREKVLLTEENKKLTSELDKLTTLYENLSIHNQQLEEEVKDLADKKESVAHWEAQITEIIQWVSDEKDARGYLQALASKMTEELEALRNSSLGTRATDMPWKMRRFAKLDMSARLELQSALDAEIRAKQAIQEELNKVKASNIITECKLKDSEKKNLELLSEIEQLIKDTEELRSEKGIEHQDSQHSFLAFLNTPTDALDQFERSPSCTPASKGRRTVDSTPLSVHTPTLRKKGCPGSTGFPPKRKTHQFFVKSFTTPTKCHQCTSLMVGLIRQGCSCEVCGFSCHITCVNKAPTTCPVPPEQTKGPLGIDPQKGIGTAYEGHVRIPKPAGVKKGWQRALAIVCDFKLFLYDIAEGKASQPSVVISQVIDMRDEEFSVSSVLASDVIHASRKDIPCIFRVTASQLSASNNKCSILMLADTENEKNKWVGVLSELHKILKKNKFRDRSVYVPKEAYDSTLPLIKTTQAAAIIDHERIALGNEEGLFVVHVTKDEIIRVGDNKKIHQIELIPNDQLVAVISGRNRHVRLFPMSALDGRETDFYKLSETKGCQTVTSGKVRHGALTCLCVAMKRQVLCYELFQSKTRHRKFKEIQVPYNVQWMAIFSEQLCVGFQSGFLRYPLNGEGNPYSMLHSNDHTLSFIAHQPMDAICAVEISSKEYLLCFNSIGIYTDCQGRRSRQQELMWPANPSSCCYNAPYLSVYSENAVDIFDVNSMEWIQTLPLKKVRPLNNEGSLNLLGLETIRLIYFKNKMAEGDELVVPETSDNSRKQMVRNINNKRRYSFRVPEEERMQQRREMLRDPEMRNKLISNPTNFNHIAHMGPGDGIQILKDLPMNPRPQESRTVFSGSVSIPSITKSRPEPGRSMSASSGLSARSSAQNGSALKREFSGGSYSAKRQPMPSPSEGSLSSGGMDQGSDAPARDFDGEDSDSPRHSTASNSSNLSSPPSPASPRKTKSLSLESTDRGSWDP"}
{"Structure (SMILES)": "O=C(O)/C=C/c1ccc(O)c(O)c1", "tested on": "Human immunodeficiency virus 1", "assay": "viral replication, inhibitor", "system": "TZM-bl, NL43", "setting": "48 h", "quantity": "pIC50", "value": 4.01}
{"Structure (SMILES)": "CNc1ncc2c(/C=C/C(=O)N3CCC(OC)CC3)nn(Cc3cccc(C(F)(F)F)c3)c2n1", "tested on": "CAMK1D (Homo sapiens, UniProt Q8IU85)", "assay": "enzyme activity, inhibitor, radiometric", "setting": "1 µM", "quantity": "remaining activity", "value": "85%"}
{"Structure (SMILES)": "COC(=O)Nc1nc2cc(C(=O)c3ccc(F)cc3)ccc2[nH]1", "tested on": "Cryptococcus neoformans", "assay": "microbial growth, broth dilution", "setting": "72 h", "quantity": "pIC50", "value": 6.20}
{"Structure (SMILES)": "CC1=C(Cn2cc(CBr)nn2)C(=O)c2ccccc2C1=O", "tested on": "Schistosoma mansoni", "assay": "parasite growth", "setting": "72 h, larva", "quantity": "pIC50", "value": 5.99}
{"Structure (SMILES)": "CC1=C(/C=C/C(C)=C/C=C/C(C)=C/C=C/C=C(C)/C=C/C=C(C)/C=C/C2=C(C)CCCC2(C)C)C(C)(C)CCC1", "tested on": "Trypanosoma cruzi", "assay": "parasite growth, absorbance", "system": "Vero, TULAHUEN", "setting": "96 h, intracellular, amastigote", "quantity": "pIC50", "value": 4.31}
{"Structure (SMILES)": "C=CC(=O)N1CCC(COCC(=O)N2CCN(c3nc(-c4cnc(N)nc4C(F)F)nc(N4CCOC[C@@H]4C)n3)CC2)CC1", "tested on": "NTRK2 (Homo sapiens, UniProt Q16620)", "assay": "binding, competition with immobilised ligand", "setting": "1 µM", "quantity": "remaining binding", "value": "95%"}
{"Structure (SMILES)": "CCCCC(=O)Nc1ccc(-c2ccc3ncn(CCC)c(=O)c3c2)cn1", "tested on": "KIT (Homo sapiens, UniProt P10721, D816H)", "assay": "binding, competition with immobilised ligand", "setting": "0.5 µM", "quantity": "remaining binding", "value": "100%"}
{"Structure (SMILES)": "COC(=O)Nc1nc2ccc(C(=O)c3ccccc3)cc2[nH]1", "tested on": "Cryptococcus neoformans", "assay": "microbial growth, broth dilution", "setting": "72 h", "quantity": "pIC50", "value": 6.51}
{"Structure (SMILES)": "CO[C@H]1/C=C/O[C@@]2(C)Oc3c(C)c(O)c4c(O)c(c(/C=N/N5CCN(C6CCCC6)CC5)c(O)c4c3C2=O)NC(=O)/C(C)=C\\C=C\\[C@H](C)[C@H](O)[C@@H](C)[C@@H](O)[C@@H](C)[C@H](OC(C)=O)[C@@H]1C", "tested on": "Trypanosoma cruzi", "assay": "parasite growth, absorbance", "system": "Vero, TULAHUEN", "setting": "96 h, intracellular, amastigote", "quantity": "pIC50", "value": 5.23}
{"Structure (SMILES)": "C[C@@H](O[C@H]1OCCN(Cc2n[nH]c(=O)[nH]2)[C@H]1c1ccc(F)cc1)c1cc(C(F)(F)F)cc(C(F)(F)F)c1", "tested on": "Human immunodeficiency virus 1", "assay": "viral replication, ELISA", "system": "human PBMC, BAL", "setting": "7 days", "quantity": "pIC50", "value": 5.27}
{"Structure (SMILES)": "CC1=C(Cc2cn(CC#N)nn2)C(=O)c2ccccc2C1=O", "tested on": "Schistosoma mansoni", "assay": "parasite growth", "setting": "72 h, larva", "quantity": "pIC50", "value": 5.81}
{"Structure (SMILES)": "COc1cc(-c2cncc3c2CN(C)Cc2cc(N4CCNCC4)ccc2-3)cc(OC)c1OC", "tested on": "CDC42BPA (Homo sapiens, UniProt Q5VT25)", "assay": "enzyme activity, inhibitor", "setting": "1 µM", "quantity": "remaining activity", "value": "108%"}
